Assay results pooled from the literature.
Protocols differ between the studies behind these lines. ± marks the error that the study gave.

SMILES | assay | system | setting | how to read | quantity | value
N=C(N)NCCC[C@@H]1NC(=O)[C@H](CCCCNC(=O)CCOCCOCCOCCOCCNC(=O)CN2CCN(CC(=O)O)CCN(CC(=O)O)CCN(CC(=O)O)CC2)NC(=O)[C@@H](Cc2ccccc2)NC(=O)[C@H](CC(=O)O)NC(=O)CNC1=O [indium-111 labelled] |  | female athymic nude mouse, U-87 MG tumour | intravenous, 3 µCi, 72 h, U-87 MG glioma xenograft |  | tumour uptake | 0.7 %ID/g
CSCC[C@H](NC(=O)[C@H](CC(C)C)NC(=O)[C@H](Cc1c[nH]cn1)NC(=O)CNC(=O)[C@@H](NC(=O)[C@H](C)NC(=O)[C@H](Cc1c[nH]c2ccccc12)NC(=O)[C@H](CCC(N)=O)NC(=O)CCCCCNC(=O)CNC(=O)CNC(=O)CNC(=O)CSC(C)=O)C(C)C)C(N)=O [technetium-99m labelled] |  | Swiss mouse, liver | intravenous, 18.5 MBq, 240 min |  | tissue uptake | 1.54 ± 0.06 %ID/g
CCCC[C@H](NC(=O)CNC(=O)[C@H](CO)NC(=O)CNC(=O)c1ccc(NN)nc1)C(=O)N[C@H]1CC(=O)NCCCC[C@@H](C(N)=O)NC(=O)[C@H](Cc2c[nH]c3ccccc23)NC(=O)[C@H](CCCNC(=N)N)NC(=O)[C@@H](Cc2ccccc2)NC(=O)[C@H](Cc2c[nH]cn2)NC1=O [technetium-99m labelled] |  | C57 mouse, B16/F1 melanoma, muscle | intravenous, 2 h |  | uptake | 0.05 ± 0.02 %ID/g
CSCC[C@H](NC(=O)[C@H](CC(C)C)NC(=O)[C@H](Cc1c[nH]cn1)NC(=O)CNC(=O)[C@@H](NC(=O)[C@H](C)NC(=O)[C@H](Cc1c[nH]c2ccccc12)NC(=O)[C@H](CCC(N)=O)NC(=O)CCCCCNC(=O)CN1CCN(CC(=O)O)CCN(CC(=O)O)CC1)C(C)C)C(N)=O [gallium-68 labelled] | microPET imaging | mouse PC-3 xenograft, PC-3 tumour | intravenous, 3.7 MBq, 15 min |  | maximum tumour uptake | 6.68 ± 0.69 %ID/g
CCCC[C@H](NC(=O)CCCCCCCNC(=O)c1ccc(NN)nc1)C(=O)N[C@H]1CC(=O)NCCCC[C@@H](C(N)=O)NC(=O)[C@H](Cc2c[nH]c3ccccc23)NC(=O)[C@H](CCCNC(=N)N)NC(=O)[C@@H](Cc2ccccc2)NC(=O)[C@H](Cc2c[nH]cn2)NC1=O [technetium-99m labelled] |  | C57 mouse, B16/F1 melanoma, kidneys | intravenous, 24 h |  | uptake | 1.05 ± 0.07 %ID/g
N=C(N)NCCC[C@@H]1NC(=O)[C@H](CCCCNC(=O)CC[C@H](NC(=O)CCOCCOCCOCCOCCNC(=O)CC[C@H](NC(=O)CN2CCN(CC(=O)O)CCN(CC(=O)O)CCN(CC(=O)O)CC2)C(=O)NCCOCCOCCOCCOCCC(=O)N[C@@H](CCC(=O)NCCCC[C@@H]2NC(=O)[C@@H](Cc3ccccc3)NC(=O)[C@H](CC(=O)O)NC(=O)CNC(=O)[C@H](CCCNC(=N)N)NC2=O)C(=O)NCCCC[C@@H]2NC(=O)[C@@H](Cc3ccccc3)NC(=O)[C@H](CC(=O)O)NC(=O)CNC(=O)[C@H](CCCNC(=N)N)NC2=O)C(=O)NCCCC[C@@H]2NC(=O)[C@@H](Cc3ccccc3)NC(=O)[C@H](CC(=O)O)NC(=O)CNC(=O)[C@H](CCCNC(=N)N)NC2=O)NC(=O)[C@@H](Cc2ccccc2)NC(=O)[C@H](CC(=O)O)NC(=O)CNC1=O [indium-111 labelled] |  | athymic nude mice, female, U-87 MG glioma xenograft, tumour and liver | intravenous, 0.5 h | relative to: tumour over liver | tumour to tissue ratio | 6.09 ± 2.81
Cc1ncsc1-c1ccc(CNC(=O)[C@@H]2C[C@@H](OC(=O)OCCSSCCn3cc(CCCC(=O)N[C@@H](Cc4ccc(O)cc4)C(=O)N[C@@H](CCCNC(=N)N)C(=O)N[C@@H](CCCNC(=N)N)C(=O)N[C@@H](CCCNC(=N)N)C(=O)N[C@@H](CCCNC(=N)N)C(=O)N[C@@H](CCCNC(=N)N)C(=O)N[C@@H](CCCNC(=N)N)C(=O)N[C@@H](CCCNC(=N)N)C(=O)N[C@@H](CCCNC(=N)N)C(=O)N[C@@H](CCCNC(=N)N)C(N)=O)nn3)CN2C(=O)[C@@H](NC(=O)COCCOCCOCCNC(=O)C[C@@H]2N=C(c3ccc(Cl)cc3)c3c(sc(C)c3C)-n3c(C)nnc32)C(C)(C)C)cc1 | UHPLC | PBS | 100 nM, 0 h, 37 °C, added: 5 mM glutathione | relative to: total peak area | released payload | 0%
COc1cc(OC)cc(C2=C3c4ccccc4C(c4ccc(NC(=S)NCCOCCOCCOCCC(=O)N[C@@H](CC(C)C)C(=O)N[C@@H](C)C(=O)N[C@@H](CCCNC(=N)N)C(=O)N[C@@H](CC(C)C)C(=O)N[C@@H](CC(C)C)C(=O)N[C@H](C(N)=O)[C@@H](C)O)cc4)=[N+]3[B-](F)(F)n3c2c2ccccc2c3-c2ccc(NC(=S)NCCNC(=O)CCCC[C@@H]3SC[C@@H]4NC(=O)N[C@@H]43)cc2)c1 |  | DMSO |  | relative to: methylene blue | fluorescence quantum yield | 0.44
N=C(N)NCCC[C@@H]1NC(=O)[C@H](CCCCNC(=O)CCOCCOCCOCCOCCNC(=O)CC[C@H](NC(=O)[C@H](CCCCNC(=O)c2ccc(NN)nc2)NC(=O)c2ccc(NN)nc2)C(=O)NCCOCCOCCOCCOCCC(=O)NCCCC[C@@H]2NC(=O)[C@@H](Cc3ccccc3)NC(=O)[C@H](CC(=O)O)NC(=O)CNC(=O)[C@H](CCCNC(=N)N)NC2=O)NC(=O)[C@@H](Cc2ccccc2)NC(=O)[C@H](CC(=O)O)NC(=O)CNC1=O [technetium-99m labelled] |  | female athymic nude mice | intravenous, 1 h, U-87 MG glioma xenograft | relative to: tumour over muscle | tissue ratio | 8.68 ± 1.84
N=C(N)NCCC[C@@H]1NC(=O)[C@H](CCCCNC(=O)CNC(=O)CNC(=O)CNC(=O)CC[C@H](NC(=O)CCOCCOCCOCCOCCNC(=O)CC[C@H](NC(=O)CN2CCN(CC(=O)O)CCN(CC(=O)O)CCN(CC(=O)O)CC2)C(=O)NCCOCCOCCOCCOCCC(=O)N[C@@H](CCC(=O)NCC(=O)NCC(=O)NCC(=O)NCCCC[C@@H]2NC(=O)[C@@H](Cc3ccccc3)NC(=O)[C@H](CC(=O)O)NC(=O)CNC(=O)[C@H](CCCNC(=N)N)NC2=O)C(=O)NCC(=O)NCC(=O)NCC(=O)NCCCC[C@@H]2NC(=O)[C@@H](Cc3ccccc3)NC(=O)[C@H](CC(=O)O)NC(=O)CNC(=O)[C@H](CCCNC(=N)N)NC2=O)C(=O)NCC(=O)NCC(=O)NCC(=O)NCCCC[C@@H]2NC(=O)[C@@H](Cc3ccccc3)NC(=O)[C@H](CC(=O)O)NC(=O)CNC(=O)[C@H](CCCNC(=N)N)NC2=O)NC(=O)[C@@H](Cc2ccccc2)NC(=O)[C@H](CC(=O)O)NC(=O)CNC1=O [indium-111 labelled] |  | female athymic nude mouse | intravenous, 72 h, U-87 MG glioma xenograft | relative to: tumour over bone | tumour to bone ratio | 6.76 ± 2.74
CCCC[C@H](NC(=O)CNC(=O)CNC(=O)c1ccc(NN)nc1)C(=O)N[C@H]1CC(=O)NCCCC[C@@H](C(N)=O)NC(=O)[C@H](Cc2c[nH]c3ccccc23)NC(=O)[C@H](CCCNC(=N)N)NC(=O)[C@@H](Cc2ccccc2)NC(=O)[C@H](Cc2c[nH]cn2)NC1=O [technetium-99m labelled] |  | C57 mouse, B16/F1 melanoma | 2 h, added: L-lysine | relative to: tumour over muscle | uptake ratio | 235
N=C(N)NCCC[C@@H]1NC(=O)[C@H](CCCCNC(=O)CCOCCOCCOCCOCCNC(=O)CC[C@H](NC(=O)CCOCCOCCOCCOCCNC(=O)CC[C@H](NC(=O)CN2CCN(CC(=O)O)CCN(CC(=O)O)CCN(CC(=O)O)CC2)C(=O)NCCOCCOCCOCCOCCC(=O)N[C@@H](CCC(=O)NCCOCCOCCOCCOCCC(=O)NCCCC[C@@H]2NC(=O)[C@@H](Cc3ccccc3)NC(=O)[C@H](CC(=O)O)NC(=O)CNC(=O)[C@H](CCCNC(=N)N)NC2=O)C(=O)NCCOCCOCCOCCOCCC(=O)NCCCC[C@@H]2NC(=O)[C@@H](Cc3ccccc3)NC(=O)[C@H](CC(=O)O)NC(=O)CNC(=O)[C@H](CCCNC(=N)N)NC2=O)C(=O)NCCOCCOCCOCCOCCC(=O)NCCCC[C@@H]2NC(=O)[C@@H](Cc3ccccc3)NC(=O)[C@H](CC(=O)O)NC(=O)CNC(=O)[C@H](CCCNC(=N)N)NC2=O)NC(=O)[C@@H](Cc2ccccc2)NC(=O)[C@H](CC(=O)O)NC(=O)CNC1=O [indium-111 labelled] |  | female athymic nude mice, muscle | intravenous, 3 µCi, 1 h, U-87 MG glioma xenograft |  | tissue uptake | 1.04 ± 0.2 %ID/g
CC(C)C[C@H](NC(=O)[C@@H]1CCCN1C(=O)[C@H](CCCCN)NC(=O)[C@@H](N)CO)C(=O)N1CCC[C@H]1C(=O)N[C@@H](CCC(=O)O)C(=O)N[C@H](C(=O)N[C@H](C(=O)N[C@@H](CC(=O)O)C(=O)N[C@@H](CCC(=O)O)C(=O)N[C@@H](Cc1ccc(O)cc1)C(=O)N[C@@H](Cc1cn(CCOCCOCCOCCNC(=O)CCc2ccc(O)c(CN(CCN(CC(=O)O)Cc3cc(CCC(=O)NCCCC[C@H](NC(=O)N[C@@H](CCC(=O)O)C(=O)O)C(=O)O)ccc3O)CC(=O)O)c2)nn1)C(=O)O)[C@@H](C)O)C(C)C [gallium-68 labelled] |  | NMRI nu/nu mice, LNCaP tumour, muscle | 10 MBq, high molar activity |  | standardized uptake value | 0.04 g/g
